Measured values gathered from unrelated publications.
Lines come from different studies, so protocols differ.

| SMILES | assay | system | setting | how to read | remaining compound [%] |
| --- | --- | --- | --- | --- | --- |
| CCOC(=O)C1=C(CN2CCOCC2)NC(c2nccs2)=NC1c1ccc(F)cc1Br (stereo not drawn) |  | human liver microsomes | 1 µM, 60 min, pH 7.4 |  | 10.2 |
| CSc1nccc(C(=O)N[C@@H](CCC(=O)O)C(=O)N[C@@H](Cc2ccc3ccccc3c2)C(=O)N[C@@H](CC(C)C)C(=O)NC2CC2c2ccccc2)n1 (stereo partly drawn) |  | pooled human plasma | 60 min, 37 °C |  | 110 |
| CCOc1ccc2ccc(=O)oc2c1 |  | mouse liver microsomes | 1 µM, 30 min, pH 7.4 |  | 0.4 |
| N.O=C(Nc1nc2ccccc2s1)NS(=O)(=O)O |  | dog liver microsomes | 4 µM, 30 min |  | 0 |
| C#CCN(C)Cc1ccccc1 |  | aqueous buffer | 0 days, 37 °C |  | 97 |
| CSc1ncc(Br)c(C(=O)N[C@@H](CCC(=O)O)C(=O)N[C@@H](Cc2ccc3ccccc3c2)C(=O)N[C@@H](CC(C)C)C(=O)N[C@@H]2C[C@H]2c2ccccc2)n1 |  | pooled human plasma | 60 min, 37 °C |  | 98.1 |
| Cn1cncc1-c1c(F)cncc1NC(=O)c1c(N)nn2cc(F)cnc12 |  | human EDTA plasma | 4000 ng/mL, 6 h, room temperature, high QC |  | 100 |
| COc1cc2c3cc1Oc1c(OC)c(OC)cc4c1[C@@H](Cc1ccc(O)c(c1)Oc1ccc(cc1)C[C@@H]3N(C)CC2)N(C)CC4 |  | mouse plasma, K3EDTA | 4 h, 37 °C |  | 113 |
| COC(=O)/C=C/c1ccc(OCCN(C)C(=O)c2ccccc2)cc1 | HPLC | Tris buffer | 100 µM, 72 h, pH 8.5, 37 °C, with: glutathione 5 mM | relative to: time zero | > 80 |
| [15NH2][C@@H](CSSC[C@H]([15NH2])C(=O)O)C(=O)O |  | 0.1 M HCl stock solution | 3 µg/mL, 3 weeks, 4 °C | relative to: freshly prepared | 106 |
| C=CC(=O)N1CCC(C(=O)N(C)CC(=O)N2CCN(c3nc(-c4cnc(N)nc4C(F)F)nc(N4CCOCC4)n3)CC2)CC1 |  | microsomes, rat liver, male, Sprague-Dawley | 1 µM, 10 min, 0.5 mg/mL microsomal protein, with: NADPH |  | 120 |
| O=Cc1c(O)cc(C(F)(F)F)cc1C(F)(F)F |  | HEPES buffer | 1 mM, 20 h, pH 7.4, 10% acetonitrile |  | 30 |
| N[C@H]1CC[C@H](N[C@@H]2C[C@H]2c2ccccc2)CC1 |  | aqueous buffer | 0 days, 37 °C |  | 99 |
| N#Cc1ccc(Nc2nc(N)cc(Oc3c(F)cc(-c4ccc(C#N)cc4)cc3F)n2)cc1 |  | monkey plasma | 1 µM, 5.00 h, pH 7.4, 37 °C |  | 78.5 |
| COc1ccc2[nH]c([S+]([O-])Cc3ncc(C)c(OC)c3C)nc2c1 (stereo not drawn) |  | simulated gastric fluid with pepsin | 1 µM, 240 min, pH 1.2 |  | 0 |
| CCN(CC)CCOC(=O)c1ccc(N)cc1 |  | mouse plasma | 10 µM, 120 min |  | < 1 |
| N#C[C@@]12C[C@@H]1[C@@H](n1cnc3c(N[C@@H](C4CCC4)C4CC4)nc(I)nc31)[C@H](O)[C@@H]2O | plasma stability | human plasma | 120 min |  | 93.3 |
| Nc1nc2c(ncn2[C@@H]2O[C@@H]3COP(=O)(O)O[C@H]4[C@@H](O)[C@H](n5cnc6c(N)ncnc65)O[C@@H]4COP(=O)(O)O[C@H]2[C@@H]3O)c(=O)[nH]1 | LC-MS | human serum | 24 h |  | 80 |
| Cc1cc(Oc2ncccc2CN2CCN(c3ncccc3C(F)(F)F)CC2)ccc1-c1c(C)c(=O)[nH]c(=O)n1C |  | rat plasma | 1 µM, 2 h |  | 87 |
| NC(=O)c1ccc(-c2cc(NCCCN3CCCCC3)c3ccccc3n2)cc1 |  | human liver microsomes | 1 h |  | 100 |
| Cc1cc2ccccc2n1CCNC(=O)c1ccc(N2CCOCC2)cc1 |  | mouse liver microsomes | 60 min |  | < 1 |

Some of these lines once more:
| SMILES | assay | system | setting | how to read | remaining compound [%] |
| --- | --- | --- | --- | --- | --- |
| N.O=C(Nc1nc2ccccc2s1)NS(=O)(=O)O |  | dog liver microsomes | 4 µM, 30 min |  | 0 |
| COC(=O)/C=C/c1ccc(OCCN(C)C(=O)c2ccccc2)cc1 | HPLC | Tris buffer | 100 µM, 72 h, pH 8.5, 37 °C, with: glutathione 5 mM | relative to: time zero | > 80 |
